Values quoted from earlier work, collected from citations in different studies.
Each line is one published result; not all experiments were run side by side. Numbers after ± are the reported error.
Chain of UniProt P41143 (whole entry, looked up): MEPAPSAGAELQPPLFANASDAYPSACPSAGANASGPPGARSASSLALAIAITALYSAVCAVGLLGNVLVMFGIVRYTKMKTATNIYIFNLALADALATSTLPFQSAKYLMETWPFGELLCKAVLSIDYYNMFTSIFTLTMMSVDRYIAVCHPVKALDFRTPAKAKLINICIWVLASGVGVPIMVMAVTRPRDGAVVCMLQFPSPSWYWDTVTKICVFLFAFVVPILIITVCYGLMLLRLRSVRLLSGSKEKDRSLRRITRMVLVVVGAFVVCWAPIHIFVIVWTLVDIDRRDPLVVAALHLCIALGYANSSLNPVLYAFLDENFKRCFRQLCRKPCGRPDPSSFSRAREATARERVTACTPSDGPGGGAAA
Chain of UniProt Q01959 (whole entry, looked up): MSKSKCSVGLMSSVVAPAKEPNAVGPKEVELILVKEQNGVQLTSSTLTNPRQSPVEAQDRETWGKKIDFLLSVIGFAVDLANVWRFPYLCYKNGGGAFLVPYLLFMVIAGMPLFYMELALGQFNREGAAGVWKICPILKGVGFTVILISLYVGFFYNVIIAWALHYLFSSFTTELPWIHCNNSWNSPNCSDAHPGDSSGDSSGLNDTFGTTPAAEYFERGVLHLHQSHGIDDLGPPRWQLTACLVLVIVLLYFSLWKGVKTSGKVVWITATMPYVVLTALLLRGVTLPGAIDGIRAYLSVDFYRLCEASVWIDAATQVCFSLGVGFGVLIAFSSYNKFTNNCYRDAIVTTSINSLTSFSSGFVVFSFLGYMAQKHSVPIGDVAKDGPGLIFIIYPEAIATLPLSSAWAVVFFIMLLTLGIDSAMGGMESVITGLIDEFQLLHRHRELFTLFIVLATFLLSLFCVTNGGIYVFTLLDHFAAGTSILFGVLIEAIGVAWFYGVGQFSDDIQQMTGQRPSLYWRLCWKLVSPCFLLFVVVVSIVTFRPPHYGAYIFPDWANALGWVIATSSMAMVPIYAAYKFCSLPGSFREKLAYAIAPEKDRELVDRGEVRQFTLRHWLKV

Compound	target	test	system	conditions	quantity	result
C=CCN(CC=C)CCc1c[nH]c2ccccc12	OPRD1 (Homo sapiens, UniProt P41143)	binding	–	together with: [3H]DADLE	Ki	> 10 µM
CN1C(=O)CN=C(c2ccccc2)c2cc(Cl)ccc21	α2 GABAA receptor	–	–	concentration not given, at analgesia above 50% maximum possible effect	receptor occupancy	~70%
COc1cc2c(cc1C)CC(N)C2 (centres unmarked)	noradrenaline transporter	[3H]noradrenaline uptake	synaptosomes	–	IC50	11.6 µM
CCCC(C(=O)c1ccc(O)c(O)c1)N1CCCC1 (centres unmarked)	norepinephrine transporter, rat	norepinephrine uptake, inhibitor	brain synaptosomes	–	IC50	0.011 ± 0.001 µM
C[C@]12CCC(=O)CC1=CC[C@@H]1[C@@H]2CC[C@]2(C)C(=O)CC[C@@H]12	ketosteroid isomerase wild-type	substrate	–	pH 7.0, 3.3 % methanol	kcat	21200 ± 800 s⁻¹
CCC[C@@H](C(=O)c1ccc2c(c1)OCO2)N1CCCC1	norepinephrine transporter, rat	norepinephrine uptake, inhibitor	brain synaptosomes	–	IC50	0.0098 ± 0.001 µM
c1ccc(C2(N3CCCCC3)CCCCC2)cc1	human α3β4 nicotinic acetylcholine receptor	inhibitor	SH-SY5Y	–	IC50	~10 µM
CCCC(C(=O)c1ccc(O)c(OC)c1)N1CCCC1 (centres unmarked)	serotonin transporter, rat	serotonin uptake, inhibitor	brain synaptosomes	–	IC50	> 10 µM
NC1Cc2cc3c(cc2C1)OCO3	dopamine transporter	[3H]dopamine uptake	synaptosomes	–	IC50	5.92 µM
NCCc1ccc(Oc2ccc(O)cc2)c(I)c1	TAAR1, mouse	–	–	–	EC50	0.0224 µM
C=CCN(CC=C)CCc1c[nH]c2ccc(OC)cc12	SLC6A3 (Homo sapiens, UniProt Q01959)	–	–	–	Ki	3.38 µM

Excerpt of the above:
Compound	target	test	system	conditions	quantity	result
c1ccc(C2(N3CCCCC3)CCCCC2)cc1	human α3β4 nicotinic acetylcholine receptor	inhibitor	SH-SY5Y	–	IC50	~10 µM
